Results gathered from unrelated publications.
A part holds a random share of what one study measured. Substitutions count along the parent as printed.

Series 1
Target: Ras GTPase-activating protein-binding protein 1, full length (G3BP1, Homo sapiens, UniProt Q13283)
Chain of UniProt Q13283 (whole entry, looked up): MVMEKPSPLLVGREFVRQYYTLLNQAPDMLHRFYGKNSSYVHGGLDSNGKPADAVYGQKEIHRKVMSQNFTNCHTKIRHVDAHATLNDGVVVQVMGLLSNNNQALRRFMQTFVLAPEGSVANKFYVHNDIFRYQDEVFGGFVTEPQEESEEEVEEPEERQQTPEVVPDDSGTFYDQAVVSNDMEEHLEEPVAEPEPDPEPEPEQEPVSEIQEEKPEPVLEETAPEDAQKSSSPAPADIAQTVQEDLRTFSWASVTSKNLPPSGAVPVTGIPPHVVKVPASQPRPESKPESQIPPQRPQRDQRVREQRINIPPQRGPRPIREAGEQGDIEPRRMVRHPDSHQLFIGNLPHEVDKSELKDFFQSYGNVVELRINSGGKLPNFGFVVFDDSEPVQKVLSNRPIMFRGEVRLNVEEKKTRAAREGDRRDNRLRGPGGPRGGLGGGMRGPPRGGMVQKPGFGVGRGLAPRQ
Technique: RNA Bind-n-Seq
Form: RNA
Sample: in vitro
Concentration: 200 nM
Setting: whole 134-nt RNA, ends assumed
Added: 150 mM KCl
Reference: input library
Reading: higher = stronger binding
Quantity: log2 enrichment
Constant ends, left off below: GGGAGUUCUACAGUCCGACGAUC … UGGAAUUCUCGGGUGUCAAGG
UGGCCCUGGUGGCAUGCGGGGAGGAAGAGGUGGCCUCAUGGAUCGUGGUGGUCCCGGUGGAAUGUUCAGAGGUGGCCGUGGUAGAGACAG: 0.0992
UCAAGUCCUGUGCUACACAUCGUAUGUACCGAAUCGGGGUGGGGAGGGGUGGGGAAAGUAUUAUGUUACGCCGUUCGGAUCUGCACUUCC: 1.32
AGUCCUGUGCUACACAUCGUAUGUACCGAAUCGGAAAAAAAGGAAAAAAAGGUUUGGAAAGUAUUAUGUUACGCCGUUCGGAUCUGCACU: -1.89
AGUCCUGUGCUACACAUCGUAUGUACCGAAUCGGGAAAAAGGAAAAAGGGAAAAAGGAAAGUAUUAUGUUACGCCGUUCGGAUCUGCACU: -0.862
CUCAAGUCCUGUGCUACACAUCGUAUGUACCGAAUCGGGGAAGGAAGGGGAAGGAAAGUAUUAUGUUACGCCGUUCGGAUCUGCACUUCC: -0.0855
CCUGUGCUACACAUCGUAUGUACCGAAUCGGGGUUUUUUGGUUUUUUGGGGUUUUUUGGGAAAGUAUUAUGUUACGCCGUUCGGAUCUGC: -0.74
UCCUGUGCUACACAUCGUAUGUACCGAAUCGGGGCCCCCCGGCCCCCCGGCCCCCCGGGGAAAGUAUUAUGUUACGCCGUUCGGAUCUGC: -0.0604
AGUCCUGUGCUACACAUCGUAUGUACCGAAUCAAAUUUAAACCCCCAAAUUUUUAAAAAAGUAUUAUGUUACGCCGUUCGGAUCUGCACU: -0.399
CCUCAAGUCCUGUGCUACACAUCGUAUGUACCGAAUCGGAGGGGAGGGAGGGAAAGUAUUAUGUUACGCCGUUCGGAUCUGCACUUCCAG: 1.46

Series 2
Target: Interferon regulatory factor 5, full length, phosphomimetic (IRF5, Homo sapiens, UniProt Q13568-2, residues 1-514, S451D/S453D/S456D/S462D)
Technique: protein-binding microarray
Form: double-stranded DNA, one strand shown
Sample: in vitro
Concentration: 940 nM top
Setting: 60-bp whole probe
Added: salmon DNA 0.4 mg/ml
Reference: random background probes
Reading: higher = stronger binding
Quantity: fitted relative affinity
Constant ends, left off below: GCCTAGCAC … GTCTTGATTCGCTTGACGCTGCTG
TTAGGACTGCTTTTCCTTTTGTGCTAG: -0.24 z-score
ATTTTTTTTAGTGGATGAAAGTGCTAG: 0.523 z-score
TTAGATACCAGTCTCGATTAGTGCTAG: 2.81 z-score
TCAACTCTTTATTTAAGACTGTGCTAG: -0.0821 z-score
GACGGTATCGGGTTTCGCGACGTGCTA: 4.92 z-score
TCAATTTTGTTCATCATACTGTGCTAG: 0.238 z-score
TTAGGTTTCGGGTATCGGTTAGTGCTA: 12 z-score
CTAGCTTCCATTTTCTGAACGTGCTAG: 0.669 z-score
TCAATTATAACACTCTTACTGTGCTAG: 0.442 z-score
TTAGAGATCGGGTTTCGATTAGTGCTA: 4.85 z-score
CCTTGTACGTCGTTTCCCAAGGTGCTA: 0.0373 z-score
TTAGGTCTACTACTGCTTTAGTGCTAG: -0.388 z-score
GGCTCTCAGTGGGCTGCTGGGTGCTAG: 0.766 z-score
TTAAATCTCAGTATCGATTAGTGCTAG: 5.3 z-score
TCACATTTTAGTTTTCAACTGTGCTAG: 0.902 z-score

Series 3
Target: CCND2, cyclin fold, Cln2 fusion (human)
Technique: yeast growth competition, sequencing
Sample: yeast
Setting: weak parent motif
Reference: not given
Reading: higher = stronger binding
Quantity: normalised enrichment score
Parent: E2F1 docking peptide (human); PPVKRRLDLETDH
PPTKRRLDLETDH [V3T]: 0.285
PPMKRRLDLETDH [V3M]: 0.523
PPVKRYLDLETDH [R6Y]: 0.0983
PPVKRMLDLETDH [R6M]: 0.198
PPVKRRLDLWTDH [E10W]: 0.479

Other studies, line by line
PhoQ, residues 284 288 289 292 302 303 SLSLLA  fold induction (PhoP, residues 12 14 15 18 19 AQCLL (Escherichia coli, UniProt P23836); Sort-seq, item: YFP reporter; E. coli; PhoQ-PhoP variant library, added: 10 µM Mg2+; reference: high Mg2+ state, higher = stronger signaling): 1.22
